Literature values that unrelated publications cite.
± gives the spread as reported.

The chains behind the UniProt entries cited, without tags or fusion partners. Residues count along the entry.
UniProt Q14790, 214-479 D374A/D384A/C409S/C433S limits assumed: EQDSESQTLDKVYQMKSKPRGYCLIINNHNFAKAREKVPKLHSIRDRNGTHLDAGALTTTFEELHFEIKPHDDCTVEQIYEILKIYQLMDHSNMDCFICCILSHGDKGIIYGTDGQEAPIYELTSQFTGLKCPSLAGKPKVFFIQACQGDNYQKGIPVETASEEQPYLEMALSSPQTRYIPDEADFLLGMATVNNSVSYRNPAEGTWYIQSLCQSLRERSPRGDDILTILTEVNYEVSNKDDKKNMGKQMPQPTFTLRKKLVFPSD

O=C(c1ccc(N2CCOCC2)cc1)N1CCC[C@@H](N(C(=O)CCl)c2ccccc2)C1 — IC50 (Caspase-8 (CASP8, Homo sapiens, UniProt Q14790, C409S/C433S/D374A/D384A); probe labeling, competitive gel-based ABPP; previously reported value): 700 nM
Cc1cc(C(=O)N[C@@H](Cc2cccc3ccccc23)C(=O)N[C@@H](CC(C)C)C(=O)N[C@H](C=O)C[C@@H]2CCCNC2=O)no1 — CC50 (Caco-2; cytotoxicity): > 100000 nM
CC(=O)N1c2ccc(-c3ccc(C#N)cc3)cc2[C@@H](Nc2ncccc2F)[C@@H](C)[C@H]1C1CC1 — IC50 (Bromodomain-containing protein 4, BD2 (BRD4, Homo sapiens, UniProt O60885); inhibitor; 2): < 100 nM
COc1cc(Cc2cnc(N)nc2N)cc(/C=C/C(=O)N2N=Cc3ccccc3C2C=C(C)C)c1OC (racemic) — Ki (dfrA (Bacillus anthracis, UniProt Q81R22)): 8.3 ± 0.2 nM

Some of these lines once more:
Cc1cc(C(=O)N[C@@H](Cc2cccc3ccccc23)C(=O)N[C@@H](CC(C)C)C(=O)N[C@H](C=O)C[C@@H]2CCCNC2=O)no1 — CC50 (Caco-2; cytotoxicity): > 100000 nM
